Results collected from several papers.
Compare with care: the assays were run in different laboratories.
rep main protease: Replicase polyprotein 1ab, main protease (rep, Severe acute respiratory syndrome coronavirus 2, UniProt P0DTD1)

CNC(=O)[C@@H](NC(=O)[C@H](CC(C)C)[C@H](O)C(=O)NO)C(C)(C)C  remaining activity (Daboia russelii venom proteases (SVMP); protease activity, inhibitor; RJ population; 0.001 µM, with: azocasein substrate; relative to: venom alone): 100%
Nc1ncnc2c([C@@H]3N[C@H](CO)[C@@H](O)[C@H]3O)c[nH]c12  inhibition (Nipah henipavirus; viral replication; HeLa, Malaysia; 100 µM): 72%
O=C(/C=C/c1ccc(O)c(O)c1/C=C/c1ccc(O)c(O)c1)O[C@H](Cc1ccc(O)c(O)c1)C(=O)O  CPE inhibition (SARS-CoV-2; viral replication; Vero E6; 100 µM): 90%
CC(C)(Cc1c[nH]c2ccccc12)NCC(O)COc1ccccc1C#N (stereo not drawn)  EC50 (SARS-CoV-2; viral replication, high-content imaging screen; cell-based): > 100 µM
CC(C)(C)[C@H](NC(=O)C(F)(F)F)C(=O)N1C[C@H]2[C@@H]([C@H]1C(=O)N[C@H](C#N)C[C@@H]1CCNC1=O)C2(C)C  inhibition (SARS-CoV-2; viral replication, infectious virus; Vero E6; 0.33 µM): 92.2%
CCCCN(CCCNC(=O)c1cc(Nc2ccc(OC)c(OC)c2)nc2ccccc12)Cc1ccccc1  maximum response (SARS-CoV-2; cytopathic effect; USA_WA1/2020; retest, 8-point, duplicates): 10.2%
Clc1ccc(C(c2ccccc2)N2CCN(C/C=C/c3ccccc3)CC2)cc1 (stereo not drawn)  EC50 (SARS-CoV-2; viral replication, high-content imaging screen; cell-based): 20.9 µM
CC1CCN(CCCNC(=O)c2cc(Sc3ccc(F)cc3)nc3ccccc23)CC1  efficacy (SARS-CoV-2; cytopathic effect; USA_WA1/2020; retest 8-point): 65.9%
O=C(O[C@@H]1Cc2c(O)cc(O)cc2O[C@@H]1c1cc(O)c(O)c(O)c1)c1cc(O)c(O)c(O)c1  mean inhibition (SARS-CoV-2; viral cytopathic effect; Vero E6; 3.125 µM): 0%
CC[C@H](C)[C@H](NC(=O)[C@H](CC(C)C)NC(=O)[C@H](Cc1c[nH]c2ccccc12)NC(=O)[C@H](CCC(N)=O)NC(=O)[C@@H](NC(=O)[C@H](Cc1ccccc1)NC(=O)[C@H](C)NC(=O)[C@H](CCCCNC(=O)COCCOCCNC(=O)COCCOCCNC(=O)CC[C@H](NC(=O)CCCCCCCCCCCCCCCCCCC(=O)O)C(=O)O)NC(=O)[C@H](CCC(N)=O)NC(=O)[C@H](C)NC(=O)[C@@H](NC(=O)[C@H](CCCCN)NC(=O)[C@H](CC(=O)O)NC(=O)[C@H](CC(C)C)NC(=O)C(C)(C)NC(=O)[C@@H](NC(=O)[C@H](CO)NC(=O)[C@H](Cc1ccc(O)cc1)NC(=O)[C@H](CC(=O)O)NC(=O)[C@H](CO)NC(=O)[C@@H](NC(=O)[C@H](Cc1ccccc1)NC(=O)[C@@H](NC(=O)CNC(=O)[C@H](CCC(=O)O)NC(=O)C(C)(C)NC(=O)[C@@H](N)Cc1ccc(O)cc1)[C@@H](C)O)[C@@H](C)O)[C@@H](C)CC)[C@@H](C)CC)C(C)C)C(=O)N[C@@H](C)C(=O)NCC(=O)NCC(=O)N1CCC[C@H]1C(=O)N[C@@H](CO)C(=O)N[C@@H](CO)C(=O)NCC(=O)N[C@@H](C)C(=O)N1CCC[C@H]1C(=O)N1CCC[C@H]1C(=O)N1CCC[C@H]1C(=O)N[C@@H](CO)C(N)=O  subjects with adverse events (refers to: Vomiting; healthy subjects; 5/5/8/10 mg titrated, multiple ascending dose): 42.9%
Cc1c(CN2CCN(c3cccc(C(F)(F)F)c3)CC2)cc(-c2ccccc2)n1NC(=O)c1ccncc1  EC50 (SARS-CoV-2; viral replication, GFP plate reader screen; cell-based): > 100 µM
CC(C)=CCc1c(O)ccc(C(=O)/C=C/c2ccc(O)cc2)c1O  mean inhibition (SARS-CoV-2; cytopathic effect; Vero E6; 1.562 µM, replicate run): 0%
Cn1cnc(Cn2c(=O)[nH]/c(=N\c3cc4cn(C)nc4cc3Cl)n(Cc3cc(F)c(F)cc3F)c2=O)n1  patients with adverse event (human, normal renal function; oral, 375 mg, hypertriglyceridaemia TEAE, Moderate severity): 0%
COc1cc(C(=O)OCCN2CCN(CCCN3c4ccccc4Sc4ccc(Cl)cc43)CC2)cc(OC)c1OC  EC50 (SARS-CoV-2; viral replication, high-content imaging screen; cell-based): > 100 µM
COc1ccc(C[C@@H]2c3cc(Oc4cc(C[C@@H]5c6cc(O)c(OC)cc6CCN5C)ccc4O)c(OC)cc3CCN2C)cc1  CPE inhibition (SARS-CoV-2; viral replication; Vero E6; 100 µM): 75%
CN1CCCC2(C1)CN(Cc1cccnc1)c1ccc(C(=O)NCC3CCCCC3)cc12 (stereo not drawn)  maximum response (SARS-CoV-2; cytopathic effect; USA_WA1/2020; round 2, 5-point): 91.7%
COc1ccc(O)cc1OC  inhibition (rep main protease; reporter gene (mKate2), inhibitor; 20 µM): -0.264%
Clc1ccccc1C1(c2ccnc(-c3ccccc3)n2)CCNCC1  efficacy (SARS-CoV-2; cytopathic effect; USA_WA1/2020; round 1, 5-point): 109%
COc1cc(/C=C2/SC(=S)NC2=O)ccc1OCC(=O)O  inhibition (rep main protease; viral replication, mKate2 reporter; SARS-CoV-2; 20 µM): -0.978%
COc1cc2c3cc1Oc1c(OC)c(OC)cc4c1[C@@H](Cc1ccc(O)c(c1)Oc1ccc(cc1)C[C@@H]3N(C)CC2)N(C)CC4  EC50 (SARS-CoV-2; viral replication, GFP plate reader screen; cell-based): 8.51 µM
COc1ccccc1-c1cccc(CN2CCCC(C(=O)NCCc3ccc(F)cc3)C2)c1 (stereo not drawn)  efficacy (SARS-CoV-2; cytopathic effect; USA_WA1/2020; round 1, 5-point): 79.9%

Repeated from above:
Cn1cnc(Cn2c(=O)[nH]/c(=N\c3cc4cn(C)nc4cc3Cl)n(Cc3cc(F)c(F)cc3F)c2=O)n1  patients with adverse event (human, normal renal function; oral, 375 mg, hypertriglyceridaemia TEAE, Moderate severity): 0%
COc1cc(C(=O)OCCN2CCN(CCCN3c4ccccc4Sc4ccc(Cl)cc43)CC2)cc(OC)c1OC  EC50 (SARS-CoV-2; viral replication, high-content imaging screen; cell-based): > 100 µM
